# Published values collected from several papers.
# Each numbered part is a random draw from the data of one study; scales do not carry over between parts. Substitutions count along the parent as printed.

# Series 1
# Target: CCNA2, cyclin fold, Cln2 fusion (human)
# Technique: yeast growth competition, sequencing
# Matrix: yeast
# Setting: strong parent motif
# Relative to: not given
# Direction: higher = stronger binding
# Parent: ORC1 docking peptide (human); PRARKRLELGNLG
Change,normalised enrichment score
R6T,2.1
R2L,2.92
L7G,0.737
L12K,4.57
G13Q,4.93
E8V,4.67

# Series 2
# Target: Prothrombin, mature alpha-thrombin (F2, Homo sapiens, UniProt P00734)
# Technique: aptamer microarray, sandwich
# Molecule type: DNA with 2'F-ANA
# Matrix: in vitro
# Tested at: 200 nM
# Setting: whole 15-mer aptamer, many near background
# Added: Cy3 exosite-II aptamer, 400 nM
# Direction: higher = stronger binding
# Strand: GGTTGGTGTGGTTGG
Modification,mean fluorescence intensity [a.u.]
2'F-ANA at 1 3 4 5 6 8 9 10 11 14,55.6
2'F-ANA at 1 2 9 10 11 13 15,51.4
2'F-ANA at 1 3 4 5 8 13,49.7
2'F-ANA at 3 4 5 6 7 8 9 11 15,81.3
2'F-ANA at 2 3 5 6 7 8 10 12 13,52.9
2'F-ANA at 1 3 6 7 10,90
2'F-ANA at 1 3 5 6 7 8 9 10 12 15,50.7
2'F-ANA at 1 2 3 7 8 10 11 12 15,98.1
2'F-ANA at 1 4 5 9 10 11 15,50
2'F-ANA at 1 4 5 6 11 12 13 15,64.1
2'F-ANA at 1 2 3 4 5 6 7 9 10 13 15,65.7

# Series 3
# Target: ABI1, truncated, D143A, DHFR fusion (Arabidopsis thaliana)
# Technique: DHFR PCA, deep sequencing
# Matrix: yeast
# Setting: methotrexate growth selection, single substitutions
# Added: (+)-ABA 58 µM
# Relative to: wild-type fitted maximum
# Direction: higher = stronger binding
# Parent: PYL1, truncated, DHFR fusion (Arabidopsis thaliana); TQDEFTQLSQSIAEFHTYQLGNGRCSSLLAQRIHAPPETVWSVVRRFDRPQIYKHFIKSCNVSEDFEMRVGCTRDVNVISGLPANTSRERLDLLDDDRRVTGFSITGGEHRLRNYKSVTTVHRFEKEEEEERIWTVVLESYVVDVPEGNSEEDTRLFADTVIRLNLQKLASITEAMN
Change,relative binding score
G21R,90.6%
L166W,5.08%
F56G,0.488%
I52H,78.9%

# Further values, each from its own experiment
Substance,target,test,system,conditions,scale,measurement,value
"PhoQ, residues 284 288 289 292 302 303 SIHMAM","PhoP, residues 12 14 15 18 19 MHTVL (Escherichia coli, UniProt P23836)","Sort-seq, refers to: YFP reporter",E. coli,"PhoQ-PhoP variant library, added: 10 µM Mg2+","relative to: high Mg2+ state, higher = stronger signaling",fold induction,14.4

# Excerpt of the above (series 2):
Modification,mean fluorescence intensity [a.u.]
2'F-ANA at 1 3 6 7 10,90
2'F-ANA at 1 3 5 6 7 8 9 10 12 15,50.7
2'F-ANA at 1 2 3 7 8 10 11 12 15,98.1
